Measured values collected from several papers.
Parts stem from different laboratories: compare values within a part only. Substitutions count along the parent as printed.

Set 1
Target: ATF3, bZIP domain (human)
Technique: DHFR protein complementation
Matrix: yeast
Setting: single substitutions, most at no-binding floor
Relative to: wild-type JUN-FOS pair
Reading: higher = stronger binding
Quantity: binding fitness
Starting sequence: JUN, bZIP domain (human); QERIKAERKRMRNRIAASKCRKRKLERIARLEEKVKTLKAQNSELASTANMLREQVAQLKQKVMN; partner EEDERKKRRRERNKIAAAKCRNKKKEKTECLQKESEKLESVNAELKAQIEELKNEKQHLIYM
S47Q: -0.0636 natural log
T48I: -0.0999 natural log
R30E: 0.0579 natural log
L52Y: -0.482 natural log
A46R: -0.0648 natural log
L38I: -0.704 natural log
L38T: -0.949 natural log

Set 2
Target: RING finger protein unkempt homolog, zinc fingers 1-6, GST-SBP tag (UNK, Homo sapiens, UniProt Q9C0B0, residues 30-357)
Sequence of UniProt Q9C0B0 (30-357, looked up): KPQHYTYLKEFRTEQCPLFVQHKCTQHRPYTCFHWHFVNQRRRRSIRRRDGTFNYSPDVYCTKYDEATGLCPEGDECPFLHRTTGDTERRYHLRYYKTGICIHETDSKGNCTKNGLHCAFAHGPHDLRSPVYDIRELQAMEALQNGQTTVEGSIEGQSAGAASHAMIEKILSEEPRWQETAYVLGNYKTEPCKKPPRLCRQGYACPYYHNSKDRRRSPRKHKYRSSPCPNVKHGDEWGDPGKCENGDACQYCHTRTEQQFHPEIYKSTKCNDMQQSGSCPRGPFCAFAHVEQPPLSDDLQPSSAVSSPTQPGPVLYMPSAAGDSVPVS
Technique: RNA Bind-n-Seq
Form: RNA
Matrix: in vitro
Concentration: not given
Setting: RNA with constant flanks, ends assumed
Relative to: input RNA pool
Reading: higher = stronger binding
Quantity: bound/input enrichment
Constant ends, left off below: GGGAGUUCUACAGUCCGACGAUC … CAACAGAGGAUUGAGCAUCA
AAUGAACACUUUAAUAUUUUCCUUACUGCUAAGGACCUGAACGCCUACAAGAAGCAAGGGACCGCAUUGCUGACCAGAAUGGGCGAGUCAGUCAAGCACGUCACUGGCGGCUACAAGCUG: 0.214 ratio
AGCAGGAAGAAUGUGCUUGGUCACAUGCAGCAGGGUGGGAGCCCAACCCCAUUUGACCGGAAUUUUGCCACUAAGAUGGGCGCCAAGGCUAUGAACUGGAUGUCUGGGAAAAUCAAAGAG: 0.24 ratio
CCCAUUAUUGAAUCUUCCACAAACAUCAAGUUUGGCUGUUUUCAAUGGUACUACCCUGAAUCCGCAGCCCAAUUCAAAGAUGCAGGCCUCAGUAUCUUCAAUAACAUUUGGAGUCAUGUU: 0.212 ratio
UCUAAUAUUAGCCUUGUCUUUGAUUUUAUGGAAACUGAUCUAGAGGUUAUAAUAAAGGAUAACCGUCUUGUGCUGACACCAUCACACAUCAAAGCCUACAUGUUGAUGACUCUUCAAGGA: 0.342 ratio
GCUGAACUUGAUACACUGAAUGAAGACUCAUACAAAGACAGCACCCUCAUCAUGCAGUUGCUCCGAGACAACCUAACACUUUGGACAUCAGACAGUGCAGGAGAAGAAUGUGAUGCGGCA: 0.205 ratio
GAAAAGCCAUCUCCUAUUCAGGAGGAGAGCAUUCCCAUUGCUUUAUCUGGUAGGGAUAUCUCCGCCCGAGCAAAAAAUGGAACAGGCAAGAGCGGUGCCUACCUCAUUCCCUUACUUGAA: 0.138 ratio
GUCCAGCGCCUGAAUGAACUUGAGGCAAUGACCAGAGUGAGAUUGGAUUUCUUGGAUCAACCCGCAAAAUUUUGGGAACUUCAAGGAUCUACUCUGAAGAUCCCUGUGGUAGAGAGAAAA: 0.311 ratio

Set 3
Target: Interferon regulatory factor 5, full length, phosphomimetic (IRF5, Homo sapiens, UniProt Q13568-2, residues 1-514, S451D/S453D/S456D/S462D)
Technique: protein-binding microarray
Form: double-stranded DNA, one strand shown
Matrix: in vitro
Concentration: 940 nM top
Setting: 60-bp whole probe
With: salmon DNA 0.4 mg/ml
Relative to: random background probes
Reading: higher = stronger binding
Quantity: fitted relative affinity
Constant ends, left off below: GCCTAGCAC … GTCTTGATTCGCTTGACGCTGCTG
TCATCTTTCTCTGCTACCACTGTGCTA: 2.02 z-score
GACGAACTGGCGACTGGAGACGTGCTA: -0.513 z-score
TTAGAACTGAGTCTCGACTAGTGCTAG: 0.905 z-score
TTAGGTCTCCTATTCCTTTAGTGCTAG: 0.0324 z-score
TCAGCTTTCTTTAACTCACTGTGCTAG: 0.954 z-score
GACGGTTTCGGTTTCGAGACGTGCTAG: 13.3 z-score
TTAGGTTTCGAATATCGGTTAGTGCTA: 6.73 z-score
GAGTCTTCTCCTCTAGGTTCGTGCTAG: 0.635 z-score

Mixed results
PhoQ, residues 284 288 289 292 302 303 SQSLSM — fold induction (PhoP, residues 12 14 15 18 19 STWGI (Escherichia coli, UniProt P23836); Sort-seq, refers to: YFP reporter; E. coli; PhoQ-PhoP variant library, with: 10 µM Mg2+; relative to: high Mg2+ state, higher = stronger signaling): 0.681
